Measured values pooled from the literature.
Each numbered part is a random draw from the data of one study; scales do not carry over between parts. Positions count from the first letter of the parent shown.

Series 1
Target: CCNB3, cyclin fold, Cln2 fusion (human)
Technique: yeast growth competition, sequencing
Sample: yeast
Notes: strong parent motif
Baseline: not given
Reading: higher = stronger binding
Parent: SCAPER docking peptide (human); SNARRSLNFGGST; partner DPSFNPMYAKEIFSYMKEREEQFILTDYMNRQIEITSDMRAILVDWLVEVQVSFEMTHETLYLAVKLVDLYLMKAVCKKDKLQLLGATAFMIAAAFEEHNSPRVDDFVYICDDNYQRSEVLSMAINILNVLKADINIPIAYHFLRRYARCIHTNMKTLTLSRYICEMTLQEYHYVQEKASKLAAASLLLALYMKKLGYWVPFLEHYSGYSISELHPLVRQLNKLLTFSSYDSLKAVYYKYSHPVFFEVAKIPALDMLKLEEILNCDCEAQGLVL
Change | normalised enrichment score
SNVRRSLNFGGST [A3V] | 2.27
SNARRSLNFGIST [G11I] | 1.29
SNARRSLNFGRST [G11R] | 0.506
SNARRSLNQGGST [F9Q] | -0.093
SNARRSLNFGGVT [S12V] | 1.09
HNARRSLNFGGST [S1H] | 1.56
SNARRSLNFGGSM [T13M] | 1.31
VNARRSLNFGGST [S1V] | 1.89
SNARRSLGFGGST [N8G] | 0.378
SNARRSLNFGGSI [T13I] | 1.38
SNARRSLNFGGSG [T13G] | 1.22
SNARVSLNFGGST [R5V] | 0.516
SNARTSLNFGGST [R5T] | 0.3
SNARLSLNFGGST [R5L] | 0.282
SNARRSQNFGGST [L7Q] | 0.379
SNARRSLNFGKST [G11K] | 1.64
SNARRSCNFGGST [L7C] | 0.406
SNARRSLNFGGSL [T13L] | 1.47
SNARRPLNFGGST [S6P] | 0.627
SNARRSLNFEGST [G10E] | 1.52
QNARRSLNFGGST [S1Q] | 1.4
SNKRRSLNFGGST [A3K] | -0.01
SNARRSLNFGLST [G11L] | 0.984
SNGRRSLNFGGST [A3G] | 0.079
SNARRSLNFGGSD [T13D] | 2.15

Series 2
Target: Ras GTPase-activating protein-binding protein 1, C-terminal RGG region (G3BP1, Homo sapiens, UniProt Q13283)
Chain of UniProt Q13283 (whole entry, looked up): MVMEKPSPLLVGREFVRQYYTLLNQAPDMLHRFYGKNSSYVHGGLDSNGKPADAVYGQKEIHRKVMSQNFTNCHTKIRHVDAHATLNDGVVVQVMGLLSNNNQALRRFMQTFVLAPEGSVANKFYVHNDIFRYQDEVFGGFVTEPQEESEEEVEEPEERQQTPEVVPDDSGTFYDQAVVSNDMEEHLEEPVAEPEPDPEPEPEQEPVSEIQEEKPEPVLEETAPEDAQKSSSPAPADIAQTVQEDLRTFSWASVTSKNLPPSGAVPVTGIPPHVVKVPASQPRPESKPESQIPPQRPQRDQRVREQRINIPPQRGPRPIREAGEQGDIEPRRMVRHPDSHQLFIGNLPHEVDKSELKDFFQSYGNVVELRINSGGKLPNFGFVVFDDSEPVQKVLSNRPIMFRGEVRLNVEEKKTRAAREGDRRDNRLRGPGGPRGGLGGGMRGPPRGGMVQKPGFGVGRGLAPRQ
Technique: RNA Bind-n-Seq
Form: RNA
Sample: in vitro
Tested at: 1 µM
Notes: whole 134-nt RNA, ends assumed
Added: 150 mM KCl
Baseline: input library
Reading: higher = stronger binding
Sequence | log2 enrichment
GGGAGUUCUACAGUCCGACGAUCGCAGGAAGUAAAAACAAAUGGAAAUGCUUCGGAUAGUGGCAGGGGCGGGGGUUGCUAAGGAAAGGGUGGGAUGGGAGUGGGUAAAGAGUUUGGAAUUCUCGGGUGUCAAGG | 0.537
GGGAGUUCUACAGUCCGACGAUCUCCUGUGCUACACAUCGUAUGUACCGAAUCGGUUUUUUGGUUUUUUGGGUUUUUUGGGGAAAGUAUUAUGUUACGCCGUUCGGAUCUGCAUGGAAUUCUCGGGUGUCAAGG | -1.27
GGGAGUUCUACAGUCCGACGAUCUCCUGUGCUACACAUCGUAUGUACCGAAUCGGGGAAAAAAAGGGGUUUUUGGGGAGGGGAAAGUAUUAUGUUACGCCGUUCGGAUCUGCAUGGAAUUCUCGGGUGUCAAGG | 1.67
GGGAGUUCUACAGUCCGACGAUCUAUCCCCUAUGAGGCACCACGUAAGACCUCCUGCCCUUAGCUCUCUUGCUCACCACCCAAGAACCUCAGGACAGAAGCGAGAGCCCAUUGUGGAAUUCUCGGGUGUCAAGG | -0.367
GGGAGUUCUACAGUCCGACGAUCAGUCCUGUGCUACACAUCGUAUGUACCGAAUCGGAAAAAGGUUUUUUUGGUUUUUGGAAAGUAUUAUGUUACGCCGUUCGGAUCUGCACUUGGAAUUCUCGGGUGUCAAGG | -2.56
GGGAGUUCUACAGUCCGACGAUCGCAGGAAGUAAAAACAAAUGGAAAUGCUUCGGAUAGUGGCAUGGGUGGGGGUUGCUAAGGAAAGGGUGGGAUGGGAGUGGGUAAAGAGUUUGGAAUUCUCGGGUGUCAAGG | 0.96
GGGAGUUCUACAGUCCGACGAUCCUGUGCUACACAUCGUAUGUACCGAAUCGGGGAAAAAAAGGAAAAAAAGGGAAAAAAAGGGGAAAGUAUUAUGUUACGCCGUUCGGAUCUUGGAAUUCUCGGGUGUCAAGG | -1.29
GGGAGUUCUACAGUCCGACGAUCCCUGUGCUACACAUCGUAUGUACCGAAUCGGGGUUUUUUUGGGGAAAAAAAGGGGAGGGGAAAGUAUUAUGUUACGCCGUUCGGAUCUGCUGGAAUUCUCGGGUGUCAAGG | 0.267
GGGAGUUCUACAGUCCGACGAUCCCUGUGCUACACAUCGUAUGUACCGAAUCGGGGAAAAAAAGGGGUUUGGGGUUUUUGGGGAAAGUAUUAUGUUACGCCGUUCGGAUCUGCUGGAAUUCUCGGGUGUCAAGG | 1.51

Series 3
Target: RNA binding protein fox-1 homolog 2, RRM domain, GST-SBP tag (RBFOX2, Homo sapiens, UniProt O43251-10, residues 100-194)
Technique: RNA Bind-n-Seq
Form: RNA
Sample: in vitro
Tested at: 365 nM
Notes: natural RNA segment, single round, ends assumed
Baseline: no-protein control
Reading: higher = stronger binding
Construct (chain): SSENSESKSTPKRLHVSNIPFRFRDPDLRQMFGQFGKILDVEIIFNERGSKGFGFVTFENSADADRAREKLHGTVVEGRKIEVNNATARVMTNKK
Sequence | RBNS enrichment (R)
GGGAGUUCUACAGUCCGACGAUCCAAGCUAGCCCCUUAUCCAGCCAACACUGCACCUAACCCCAGGGAUUUGCUACCAGAGCAAACUCAGUUCUGCCUGUCCCUGAAGUAUGACCAGGAGACAGCCAGUUUCAUGGAAUUCUCGGGUGCCAA | 0.631
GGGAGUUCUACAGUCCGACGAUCGUUUGGACAGAGCACCACUGUCACCAAGGAGCCUGUGUGAGACACACUGCUGAGACUGCCUCUUGUUAAUGUCACCAUCACCUCAUCACUCAGGCAAAGAGGGGAAAAUCUGGAAUUCUCGGGUGCCAA | 0.583
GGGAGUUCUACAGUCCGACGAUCUCUGCAUCUGUCUCAGACAGGAGCUACCAAAGGGAAACUGUUGUUCUUAUAAGUGUCUUACUUUAAAUCAUGAUAAUAGAAUGUGCACAGUAGCUGAAUUGUGUUAUCAAUGGAAUUCUCGGGUGCCAA | 0.749
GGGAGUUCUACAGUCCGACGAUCGGAACAUGUUGGUGGAAGCUUGUACAAUAGAACACAUUGGUGGGAGCUUGUACAUACUUUUUUAUGGAGCAUUACUUACGAUUUUUUAAGUAAAAUGUUUUGAAACCAAAUGGAAUUCUCGGGUGCCAA | 0.392
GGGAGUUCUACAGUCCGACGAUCCUGUUUUCUGGUGCUGACUGCUACACCCAGGACUUUGCCCUCACUAAGCAAAUGUACCACCAAUGAGCCAGGUUCCUAGCCUUCCUUUUGGAAGCUCAGUUCUUGAGUUGUGGAAUUCUCGGGUGCCAA | 0.225
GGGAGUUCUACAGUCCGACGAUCCCACACCCCAGCUCCUAUCUUCUGUACCCGAGUGUGUCUGAUGCUCCGUGCUGUCCAGGAAUUGUUUUAUGUAUUAUUGUCAUUGCAGAAAAGGUAGUGGCCGAGCUGGUUGGAAUUCUCGGGUGCCAA | 0.58
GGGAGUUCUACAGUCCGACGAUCGUGUUAUCUUUAUAUGUCAAACUGGUUGAACACUGUAAUGAGAAUAAACUGCACAGAGUUUAUUCUGACUUAUUUCUCAUUUUGUUUGGUUCAGCCCUUGUGUGAUGAAGUGGAAUUCUCGGGUGCCAA | 0.665
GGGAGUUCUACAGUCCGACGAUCCAGGCGCUCGCGGAAGCACGUCACUUACUGGGUUUGUUCACCUGUUUCCAGCAAGUUUUGGUCUUUUGGGCAGAAGCCUGUUGACCAACUGUGGGCCACCACAGUCUGCAUGGAAUUCUCGGGUGCCAA | 0.862

Series 4
Target: Histone acetyltransferase KAT6A, winged helix 2, GST fusion (KAT6A, Homo sapiens, UniProt Q92794, residues 85-181)
Technique: protein binding microarray
Form: double-stranded DNA, one strand shown
Sample: in vitro
Tested at: not given
Notes: 8-mer, flanks averaged, mean of 2 arrays, mostly near background
Baseline: not given
Reading: higher = stronger binding
Construct (chain): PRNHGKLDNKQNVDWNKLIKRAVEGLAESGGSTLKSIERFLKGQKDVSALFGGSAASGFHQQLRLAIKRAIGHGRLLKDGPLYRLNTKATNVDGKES
Sequence | E-score
CCTTGCGC | -0.118
CGTATTCA | 0.0301
CATTACCA | -0.0214
GGTTCTTA | 0.00726
GTAAGTCA | -0.117
GCGCGTGA | 0.11
GCTTTTAC | 0.0175
CCGGGACG | 0.0554
ACGAGGCG | 0.19
GGGAGTTA | -0.102
ATAGGTGG | -0.157
AAGTGCTA | -0.161
TGGCACAA | -0.0168
TATCCCGA | 0.0705
AGGAGCTG | -0.0217
ACCGTAAG | -0.0795
GGACCTCA | -0.0855
CTCGATCA | 0.0864
AGGAAGTC | -0.278
ATGGGTAG | -0.222
ACCTCCTG | -0.142
CATGCGCG | 0.0567
CTAAGAAG | 0.0991
CCACAGGA | 0.104
CGATGCAC | -0.0743

Repeated from above (series 1):
Change | normalised enrichment score
SNARRSLNFGIST [G11I] | 1.29
SNARRSLNFGRST [G11R] | 0.506
SNARRSLNQGGST [F9Q] | -0.093
SNARRSLNFGGVT [S12V] | 1.09
HNARRSLNFGGST [S1H] | 1.56
